# Assay results gathered from unrelated publications.
# Every numbered part comes from another study and shows a few of its results, in no order. Changes are numbered by the printed parent chain.

# Sample 1 — method: RNA Bind-n-Seq; molecule type: RNA; matrix: in vitro; concentration: 365 nM; baseline: no-protein control; reading: higher = stronger binding
# Target: RNA binding protein fox-1 homolog 2, RRM domain, GST-SBP tag (RBFOX2, Homo sapiens, UniProt O43251-10, residues 100-194)
# Notes: natural RNA segment, single round, ends assumed
# Construct (chain): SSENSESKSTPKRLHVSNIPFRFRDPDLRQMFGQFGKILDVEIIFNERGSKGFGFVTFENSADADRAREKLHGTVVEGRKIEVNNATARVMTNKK
Sequence,RBNS enrichment (R)
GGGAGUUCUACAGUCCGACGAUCUAACACACUGGCCAUUCUUAUGUUCCAGAUGGCCCCCAGCUGGUGUCCUGCCCGCCUUUCAUCUGGAUUCUACAAAAAACCAGGAUGCCCACCGUUAGGAUUCAGGCAGCUGGAAUUCUCGGGUGCCAA,0.217
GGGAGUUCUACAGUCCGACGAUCUUUAAAAACAGAAUUGUGUUAUGUGAUCAGUUUUGGGGGUUAACUUUGCUUAAUUCCUCAGGCUUUGCGAUUUAAGGAGGAGCUGCCUUAAAAAAAAAUAAAGGCCUUAUUGGAAUUCUCGGGUGCCAA,0.697
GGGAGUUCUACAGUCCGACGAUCAAGACCAGGUGCUGGGAUUAAGGAAACACAGGUCUGAGGGUCUGAGGGAAGGGGCCUGCCUCCCAGGGAGUCAACAUAGAUGUUCCCCAUGAACAGGGAUUUGACUUUGGUGGAAUUCUCGGGUGCCAA,0.676
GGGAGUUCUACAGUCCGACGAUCAGUUUCAGUGAGUCCCAGGGACUAAUUAAGGUUUAUUUUAAAAAGUGUCUACCUUGGUACGCAGCCACCUCCUGCAUGCUGUGCAUGUUAUUGGGACUUGUAUUAUAGGUUGGAAUUCUCGGGUGCCAA,2.44
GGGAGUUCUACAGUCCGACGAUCAUAAACCUACUGUACUCAGUGCUUCUCCAAGAAUACUACAACGGAUGGUUGUACAGUUUGAUUGGAGGCAUGGGGUGUAUGUGAAGUUGGAAGCCUUUGAUAGUUACUGCUGGAAUUCUCGGGUGCCAA,0.516
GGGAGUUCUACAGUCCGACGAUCCUGUUAAUUUUAUAAGCUAGAAAUCACUAUAAUGAAUUAUGCCAAUUCUGAAAAAUUUUACACAUGUAUGGCAACACCUGAUCUAUCGGUUAUCCAACGCUUCAUUGUACUGGAAUUCUCGGGUGCCAA,0.604
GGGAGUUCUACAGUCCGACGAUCAUAAACCACCGUCGUGAGGCAUUUACCUGUUGGAUGGAAGGUAGACAGCAACAAGAUUUUAAUCACCUGGUCACCAGACCCUCACGGCCCAUAUCCAAUUCGAAUUUCAGUGGAAUUCUCGGGUGCCAA,0.393
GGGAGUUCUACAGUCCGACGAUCCGUGCCUAUUUAUCCCUCGUUCCUGAACACUACUAGUACCGUAGGGCUGGACCACCAUCUGUACCGUUGCGUCCACAGUGUGCAUUCUGAGGUAUCACUCAGGGUGCCAAUGGAAUUCUCGGGUGCCAA,0.259
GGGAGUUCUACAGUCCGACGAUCGUCAGUAUCUCCAGCUCUGAUUACCUUUGAAGUGUUCAGAAGAGACAUUGUCUUCUACUGUUCUGCCAGGUUCUUCUUGAGCUUUGGGCCUCAGUUGCCCUGGCAGAAAAUGGAAUUCUCGGGUGCCAA,0.289
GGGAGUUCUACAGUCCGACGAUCAACCCCCCACCCCGUUACCCUGACCUGAUAAAUCCCAUGACCACAUUUCUCAUAUAAAGAAGACAUCUACCAUUGAGUGAGCCAUCUCUUGGGAAGCUCUGGGAGAUGUGUGGAAUUCUCGGGUGCCAA,0.417
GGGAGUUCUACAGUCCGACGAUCGCUGCUAUCAGCUCUGUUAGGUUAUUGUGGGUGUUAGAGGCCGAGCACAGCGACCUCCAGGGCACCUCUGCGGAGUGACUAGCCACAGGCAGAGCUGCAUUGUGGUAUAUUGGAAUUCUCGGGUGCCAA,0.428
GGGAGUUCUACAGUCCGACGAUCCUCAUUAACUUAACCAACAAUGUGUAUUGAGUCUCUGCUGUAUAUCUGUGAUGCUCUGUCCCAAGCCAUGGGGAUCUAGAGGUGAAUCAGAAAUAGCCUCAGAAACUGAGUGGAAUUCUCGGGUGCCAA,0.31

# Sample 2 — method: DHFR PCA, deep sequencing; matrix: yeast; added: (+)-ABA 0.39 µM; baseline: wild-type fitted maximum; reading: higher = stronger binding
# Target: ABI1, truncated, D143A, DHFR fusion (Arabidopsis thaliana)
# Notes: methotrexate growth selection, single substitutions
# Starting sequence: PYL1, truncated, DHFR fusion (Arabidopsis thaliana); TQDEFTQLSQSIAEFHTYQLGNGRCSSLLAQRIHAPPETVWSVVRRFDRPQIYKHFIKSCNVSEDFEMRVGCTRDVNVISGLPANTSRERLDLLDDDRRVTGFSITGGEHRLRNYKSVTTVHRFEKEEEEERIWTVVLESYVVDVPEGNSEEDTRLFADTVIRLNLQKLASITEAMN
Variant,relative binding score
V145L,-16.5%
R113D,-6.3%
E131L,49.9%
N114Q,-12.5%
F66I,1.27%
L91H,-16.8%
E147S,21.6%
N77C,58.3%
P83I,-1.11%
V44T,-5.5%
S63K,45.1%
T39E,17.7%
R49A,40.7%
R111C,6.01%
M176S,15.2%
V161R,-0.242%
T120M,-4.27%
I172F,-10.7%
R24N,12.5%
E89W,7.79%
L138A,-21.4%
C72D,39.5%
R74V,-10.3%
V100P,-4.27%

# Sample 3 — method: RNA Bind-n-Seq; molecule type: RNA; matrix: in vitro; concentration: not given; baseline: input RNA pool; reading: higher = stronger binding
# Target: RING finger protein unkempt homolog, zinc fingers 1-6, GST-SBP tag (UNK, Homo sapiens, UniProt Q9C0B0, residues 30-357)
# Chain of UniProt Q9C0B0 (30-357, looked up): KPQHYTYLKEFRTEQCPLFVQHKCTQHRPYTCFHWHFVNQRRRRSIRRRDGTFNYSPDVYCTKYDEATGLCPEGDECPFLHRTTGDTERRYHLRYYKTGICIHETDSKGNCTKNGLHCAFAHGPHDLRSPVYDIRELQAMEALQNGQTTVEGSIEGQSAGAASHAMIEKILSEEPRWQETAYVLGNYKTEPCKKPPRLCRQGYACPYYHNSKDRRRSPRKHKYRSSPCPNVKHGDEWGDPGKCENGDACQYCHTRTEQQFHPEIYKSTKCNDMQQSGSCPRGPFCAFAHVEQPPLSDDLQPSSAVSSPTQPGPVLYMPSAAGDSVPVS
# Notes: RNA with constant flanks, human-mouse chimeric sites, ends assumed
Sequence,bound/input enrichment
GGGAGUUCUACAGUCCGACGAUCGAGCGUCUCGCUCGAACUGGGAUCAUCGUGACCACUAGUGAGGCUGUCCUCCUACAGCUGGUAGCUGACAAAGACCACCCGAAGUUCAAGGAAAUUCAGAACCUAAUUAAGGCGAGUGCCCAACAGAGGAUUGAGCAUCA,0.165 ratio
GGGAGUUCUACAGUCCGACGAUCCCCCAAUACCAUUUGCAGGUCUGGAACUGCACUCUCUUUUUUAAAAAAUAUGCAUAUAUUUUAGGGCUGUAGAUUUAUUUUCCUGGUUUUGUUUUUCAUUGCUGACUUUGAGCACAAGAACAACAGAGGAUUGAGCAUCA,0.977 ratio
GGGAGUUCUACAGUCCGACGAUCUUCAAAGAAAAGGGCAGCUGUGUCAUUUCAUAAGUAAAACUGCAUCCGGGAAAUUCUGUUCUUUUGUUUUUAGUUUUCCCAAAUGAAGCCAAAGUGUGUGUUGAAGAACUGAGAAAAAAUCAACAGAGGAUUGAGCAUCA,0.42 ratio
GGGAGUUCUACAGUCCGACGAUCUUACCCGAAAAUGAAGAUGAGCUGGAGAGCACCAACAGGCGCUACACCAAGAGGGACUGCAGCACUUUCCUCAGAACUAGUGAGACGGGCAUCGUGGACCAGGUCAUGGUCACUCUCAACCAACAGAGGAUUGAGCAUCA,0.186 ratio
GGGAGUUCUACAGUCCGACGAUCUCCUUGGACCCCAGUCAUAUAGGUGACCUGCAAAAAGCAGACACCAGUAGUCAAGGUGCUUUAGUGUUUCUCUCAAAGGACUACGAAAUAGAAAGUCAAAAUCCUCUGGCCUCUCCUACGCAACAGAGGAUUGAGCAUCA,2.05 ratio
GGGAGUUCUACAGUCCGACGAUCUGUGCAUAUGAUGCUUGAGAUGGUUUUUGCAAAAGCAGACAUCGCUGCAAGGUAAUCACAAUAGAUAAAAGUGGUAUUUUAAACCUUUGAAAUAAAUGGAUGUAACUGUACGUUGGUACACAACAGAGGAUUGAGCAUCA,0.849 ratio
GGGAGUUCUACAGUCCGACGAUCGGAAGCACAAUGAUGGAGAUUGAUGGUGACAAAGGCAAGCAGGGCGGUCCCACCUACUACAUAGACACCAAUGCCCUCCGCGUGCCCAGGGAGAACAUGGAGGCCAUCUCACCACUCAAGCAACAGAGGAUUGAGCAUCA,0.185 ratio
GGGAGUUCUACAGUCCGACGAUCGUGACUGGUGUUAAGAUUUACCCUCAGCAAAGAAGUGCAGUAGUCACCAUAAUUCCAUCUGUGGUGAGUGCCAGUCAGAUUGUGGAGCUGGUCCCAGAACUCAGUUUAGACAUGGGAACUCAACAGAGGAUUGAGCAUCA,0.705 ratio
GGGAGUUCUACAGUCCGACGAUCAAAGCCCAAGUAUUUUGAAAAAACUCGAACAGAUUUAUCAAGGGUAACCAGCUUGGAGUCUAGCAACUUGCCAAUGUGUUUACCAAUCUGGGGGCUUGUUUUUCUUUUCUUCUUUCAAAUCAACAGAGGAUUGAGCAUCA,0.224 ratio
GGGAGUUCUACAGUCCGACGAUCAAAGAGUGGAUAGAGUGUGCACACGGGAUCGGUUAUACCCGGGCGAAAAAGGAGUGCAAGAUAGAGUUCGAUGACUUCGAAGAGUGCUUGCUUCGGUACAAAACGAUGAGGCGAAUGCAUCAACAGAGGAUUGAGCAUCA,0.442 ratio
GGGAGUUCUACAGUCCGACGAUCUCAGGAACUCAGACAAACAUGAAUGUAAAUGAAGUCAUUAGCAACAGAGCAAUUGAAAUGUUAGGAGGUGAACUUGGCAGCAAGAAGCCUGUGCAUCCCAAUGAUCAUGUUAACAAAAGCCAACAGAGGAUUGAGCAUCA,0.176 ratio

# Sample 4 — target: CCND1, cyclin fold, Cln2 fusion (human); method: yeast growth competition, sequencing; matrix: yeast; notes: weak parent motif; baseline: not given; reading: higher = stronger binding
# Starting sequence: WEE1 docking peptide (human); HKTFRKLRLFDTP
Variant,normalised enrichment score
HKTFRKLRLYDTP [F10Y],-1.15
HKTFRKLRCFDTP [L9C],-0.351
HFTFRKLRLFDTP [K2F],0.244
HKTFRKLRLFDTN [P13N],0.375
HKTFRKLRLTDTP [F10T],-0.156
HETFRKLRLFDTP [K2E],0.125
HKTFRKLRLFDTD [P13D],0.385
HRTFRKLRLFDTP [K2R],0.749
HKTFEKLRLFDTP [R5E],1.18
HKTFRKARLFDTP [L7A],-0.727
HKTFRNLRLFDTP [K6N],0.395
HKTFVKLRLFDTP [R5V],-0.311
HKTFRKLWLFDTP [R8W],1.11
AKTFRKLRLFDTP [H1A],-0.424
SKTFRKLRLFDTP [H1S],0.571
HKTFRQLRLFDTP [K6Q],0.212
HKTFRTLRLFDTP [K6T],-0.392

# Single results of other studies
Substance,target,assay,test system,setting,scale,measurement,result
"PhoQ, residues 284 288 289 292 302 303 ASTSDA","PhoP, residues 12 14 15 18 19 TPWLV (Escherichia coli, UniProt P23836)","Sort-seq, refers to: YFP reporter",E. coli,"PhoQ-PhoP variant library, added: 10 µM Mg2+","baseline: high Mg2+ state, higher = stronger signaling",fold induction,8.78

# For quick reference, copied from above (sample 3):
Sequence,bound/input enrichment
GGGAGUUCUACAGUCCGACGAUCUCAGGAACUCAGACAAACAUGAAUGUAAAUGAAGUCAUUAGCAACAGAGCAAUUGAAAUGUUAGGAGGUGAACUUGGCAGCAAGAAGCCUGUGCAUCCCAAUGAUCAUGUUAACAAAAGCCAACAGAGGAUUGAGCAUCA,0.176 ratio
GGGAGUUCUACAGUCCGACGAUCCCCCAAUACCAUUUGCAGGUCUGGAACUGCACUCUCUUUUUUAAAAAAUAUGCAUAUAUUUUAGGGCUGUAGAUUUAUUUUCCUGGUUUUGUUUUUCAUUGCUGACUUUGAGCACAAGAACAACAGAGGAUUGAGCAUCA,0.977 ratio
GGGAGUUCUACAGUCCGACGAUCUCCUUGGACCCCAGUCAUAUAGGUGACCUGCAAAAAGCAGACACCAGUAGUCAAGGUGCUUUAGUGUUUCUCUCAAAGGACUACGAAAUAGAAAGUCAAAAUCCUCUGGCCUCUCCUACGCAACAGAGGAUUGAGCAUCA,2.05 ratio
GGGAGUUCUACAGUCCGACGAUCAAAGCCCAAGUAUUUUGAAAAAACUCGAACAGAUUUAUCAAGGGUAACCAGCUUGGAGUCUAGCAACUUGCCAAUGUGUUUACCAAUCUGGGGGCUUGUUUUUCUUUUCUUCUUUCAAAUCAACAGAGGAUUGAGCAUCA,0.224 ratio
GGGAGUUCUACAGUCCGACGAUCGAGCGUCUCGCUCGAACUGGGAUCAUCGUGACCACUAGUGAGGCUGUCCUCCUACAGCUGGUAGCUGACAAAGACCACCCGAAGUUCAAGGAAAUUCAGAACCUAAUUAAGGCGAGUGCCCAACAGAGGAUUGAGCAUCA,0.165 ratio
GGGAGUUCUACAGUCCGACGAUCAAAGAGUGGAUAGAGUGUGCACACGGGAUCGGUUAUACCCGGGCGAAAAAGGAGUGCAAGAUAGAGUUCGAUGACUUCGAAGAGUGCUUGCUUCGGUACAAAACGAUGAGGCGAAUGCAUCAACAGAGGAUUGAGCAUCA,0.442 ratio
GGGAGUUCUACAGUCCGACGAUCUUCAAAGAAAAGGGCAGCUGUGUCAUUUCAUAAGUAAAACUGCAUCCGGGAAAUUCUGUUCUUUUGUUUUUAGUUUUCCCAAAUGAAGCCAAAGUGUGUGUUGAAGAACUGAGAAAAAAUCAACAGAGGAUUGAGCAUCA,0.42 ratio
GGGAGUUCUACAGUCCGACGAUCUUACCCGAAAAUGAAGAUGAGCUGGAGAGCACCAACAGGCGCUACACCAAGAGGGACUGCAGCACUUUCCUCAGAACUAGUGAGACGGGCAUCGUGGACCAGGUCAUGGUCACUCUCAACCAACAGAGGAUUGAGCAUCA,0.186 ratio
